Measured values pooled from the literature.
Compare with care: the assays were run in different laboratories. “And” joins repeats or separate records; there may be more than shown. ± gives the spread as reported.
Sequence of UniProt P24666 (whole entry, looked up): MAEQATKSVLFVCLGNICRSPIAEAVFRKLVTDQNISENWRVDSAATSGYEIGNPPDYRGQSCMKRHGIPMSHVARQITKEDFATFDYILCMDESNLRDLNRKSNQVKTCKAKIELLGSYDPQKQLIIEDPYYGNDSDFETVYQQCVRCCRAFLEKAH
Sequence of UniProt P53680 (whole entry, looked up): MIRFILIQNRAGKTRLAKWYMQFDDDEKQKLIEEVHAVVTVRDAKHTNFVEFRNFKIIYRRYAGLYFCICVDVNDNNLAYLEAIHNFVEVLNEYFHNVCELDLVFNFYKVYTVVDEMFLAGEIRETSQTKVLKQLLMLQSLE

Structure (SMILES)	tested on	test	test system	setting	how to read	measurement	value
COC[C@@H](CC(C)C)NC(=O)c1ccc(C)c(C)c1			Hsd:ICR (CD-1) mouse, female, bone marrow	oral, 500 mg/kg, 24 h		micronucleated PCE per 1000 PCE	0.5
CCN(CC)CCNC(=O)c1ccc(-c2nc(CN3CCc4ccccc43)c(C)o2)cc1	Vero-E6	CellTiter-Glo ATP		72 h, second round 5-point	relative to: DMSO 0%, hyamine -100%, more negative, more toxic	maximum response	-2.86%
CCC[C@@](N)(CO)CCc1ccc(OCCCCCC(C)C)cc1			dog	oral, 10 mg/kg		AUC(0-inf)	18.1 µM·h
Cn1cncc1-c1c(F)cncc1NC(=O)c1c(N)nn2cc(F)cnc12			human patients	oral, 220 mg once daily, 21 days		dose-limiting toxicity platelet decrease	0%
CCCCCCCCCCCCCCCC(=O)N[C@@H](CCC(=O)NCCCC[C@H](NC(=O)[C@H](CC(=O)O)NC(=O)[C@H](CO)NC(=O)[C@@H](NC(=O)[C@H](Cc1ccccc1)NC(=O)[C@@H](NC(=O)CNC(=O)[C@H](CCC(N)=O)NC(=O)[C@H](CO)NC(=O)[C@@H](N)Cc1c[nH]cn1)[C@@H](C)O)[C@@H](C)O)C(=O)N[C@@H](CO)C(=O)N[C@@H](CCC(=O)O)C(=O)N[C@@H](Cc1ccc(O)cc1)C(=O)N[C@@H](CC(C)C)C(=O)N[C@@H](CC(=O)O)C(=O)N[C@@H](CO)C(=O)N[C@@H](CCC(=O)O)C(=O)N[C@@H](CCCNC(=N)N)C(=O)N[C@@H](C)C(=O)N[C@@H](CCCNC(=N)N)C(=O)N[C@@H](CC(=O)O)C(=O)N[C@@H](Cc1ccccc1)C(=O)N[C@H](C(=O)N[C@@H](C)C(=O)N[C@@H](Cc1c[nH]c2ccccc12)C(=O)N[C@@H](CC(C)C)C(=O)N[C@@H](CCC(=O)O)C(=O)N[C@@H](C)C(=O)NCC(=O)NCC(=O)O)C(C)C)C(=O)O			human, CrCl ≥ 90 mL/min	sc, 100 µg single dose		injection site bruising	0%
C[C@]1(CO)Cc2ncn(-c3ccc(C#N)c(Cl)c3)c2C(=O)O1		investigator-assessed	human	2 mg single dose		subjects with drug-related TEAEs	16.7%
C[C@@H]1OC(=O)NN=C1c1ccc(-c2ccc(F)cc2)c(C(F)(F)F)c1		phase I trial, measured: AST increased worst grade 1	human patients	10 mg loading then 0.5 mg daily		patients with adverse event	0%
[O-][S+]1CCc2nc(N3CCC(c4ncc(Cl)cn4)CC3)nc(NC3(CO)CCC3)c21 (stereo not drawn)		measured: Dizziness	healthy male humans	36 mg single dose		adverse event incidence	16.7%
N[C@@H]1c2ccccc2OC12CCN(c1cnc3c(N4CCCc5ncccc54)n[nH]c3n1)CC2			advanced metastatic solid tumour patients	oral, 20 mg once daily		TEAE leading to withdrawal	0%
COc1cc(Nc2ncc(F)c(Nc3ccc4c(n3)NC(=O)C(C)(C)O4)n2)cc(OC)c1OC	Low molecular weight phosphotyrosine protein phosphatase, isoform B (ACP1, Homo sapiens, UniProt P24666)			LMPTP-B		IC50	> 10 µM
C[C@@H]1N=C(c2ccccc2F)c2cc(Br)ccc2-n2cnc(C(=O)O)c21			mice, blood	oral gavage, 100 mg/kg		half-life	47.8 min
Clc1nc[n]([Au][PH](c2ccccc2)(c2ccccc2)c2ccccc2)c1Cl			NCG mice	intraperitoneal, 3 mg/kg single dose, 24 h		body weight	23.2 g and 22.8 g
CC(=O)c1c(C)c2cnc(Nc3ccc(C4CCN(CCS(C)(=O)=O)CC4)cn3)nc2n(C2CCCC2)c1=O			human, plasma	oral, 75 mg twice daily, day 21, multiple doses, together with: fulvestrant		t1/2	554 min
COc1ncccc1-c1cnn2ccc(N3CCN(C(=O)OC(C)C)CC3)nc12			rat, thermal hyperalgesia model, plasma	oral, 0.1 mg/kg, 180 min		drug concentration	9 nM
COc1ccc(-c2c(-c3ccc(C#N)c(F)c3)nc(N3CCC(N)CC3)n(C)c2=O)cc1F		measured: Anemia	neuroendocrine neoplasm patients	oral, 60 mg, grade 3 to 4, dose expansion		treatment-related adverse event incidence	0%
Cn1cc(-c2nc(N[C@@H]3CCCC[C@@H]3N)c(F)c3c2C(=O)NC3)cn1		measured: subdural haematoma	patients with relapsed or refractory AML	oral, 60 mg once daily		hemorrhagic adverse events	25%
O=S(=O)(Nc1ccccc1)c1ccc(NC(=S)Nc2ccccc2)cc1		measured: Bu	male mouse, blood	oral, 20 mg/kg daily, 14 days		blood chemistry level	0.18 mg/dL

Structure (SMILES)	tested on	test	test system	setting	how to read	measurement	value
Cc1cccc(Cn2nc(C3CC3)c3c(NC(=O)c4cnc5cc(OCCN6CCN(C)CC6)ccn45)cccc32)n1		measured: Hypokalemia	human pancreatic ductal adenocarcinoma	oral, dose not given, all-causality		adverse events incidence	14.8%
COc1ccc(C[C@@H]2NC(=O)[C@H]([C@@H](C)O)NC(=O)[C@@H]3[C@@H]4CCN3C(=O)[C@@H]3Cc5cn(c6ccc(F)cc56)CCCCCCN(Cc5ccc(cc5)CCNC(=O)[C@]5(C)CCCN5C2=O)C(=O)CCC(=O)N[C@@H](C)C(=O)N[C@H](CNC(=O)CCCCC[N+](C)(C)C)C(=O)N[C@@H](Cc2cccc(c2)CNC(=O)CO4)C(=O)N3)cc1		measured: post lumbar puncture syndrome	human	Study-003 safety		adverse events	0%
CC(C)[C@@H]1NC(=O)CNC(=O)[C@H](CC(N)=O)NC(=O)[C@H](CCCNC(=N)N)NC(=O)[C@H](Cc2ccc(O)cc2)NC(=O)[C@H](C(C)C)NC(=O)[C@@H](NC(=O)[C@@H](NC(=O)[C@H](CC(N)=O)NC(=O)[C@H](Cc2c[nH]c3ccccc23)NC(=O)[C@H](C)NC(=O)[C@H](Cc2ccccc2)NC(=O)CN)C(C)C)CSSC[C@@H](C(=O)N[C@@H](Cc2cnc[nH]2)C(=O)N[C@@H](CCCNC(=N)N)C(=O)N[C@@H](CCCNC(=N)N)C(=O)N[C@@H](C)C(=O)N[C@@H](CC(N)=O)C(N)=O)NC(=O)[C@H](C(C)C)NC(=O)[C@H](CCCNC(=N)N)NC1=O			ICR mice, blood	intraperitoneal, 10 mg/kg, day 5		haematocrit	41.1 ± 1.13%
CC(C)N(CCc1c[nH]c2cccc(OC(=O)CCCC(=O)O)c12)C(C)C.Cl			male beagle dog, plasma	intravenous, 1 mg/kg		Cmax	1870 ng/mL
CC(C)(O)c1cc(Nc2cc(Oc3cn(C4CC4)nc3C3CCOCC3)ccn2)ccn1		Diarrhea	patients with advanced cancer, Japanese cohort	oral, dose not given, grade ≥3		treatment-related adverse events	0%
COc1cc2c(Oc3ccc4[nH]c(C)cc4c3F)ccnc2cc1OCC1(N)CC1			paediatric recurrent refractory sarcoma	10 mg		Thrombocytopenia incidence	50%
CCN1[C@@H](C(=O)NC23CCC(C(=O)O)(CC2)CC3)[C@H](c2cccc(Cl)c2F)[C@]2(C(=O)Nc3cc(Cl)ccc32)C12CCCCC2			patients with advanced solid tumours	oral, 150 mg		Myalgia incidence	0%
CC[C@H](C)[C@@H]1NC(=O)[C@@H]2CCCN2C(=O)[C@H](CC(C)C)NC(=O)[C@H](CC(C)C)NC(=O)CNC(=O)[C@@H](NC(=O)[C@@H](NC(=O)[C@H](CC(=O)O)NC(=O)CNC(=O)[C@@H](NC(=O)[C@H](C)NC(=O)CNC(=O)[C@H](CCCCN)NC(=O)[C@H](CC(C)C)NC(=O)[C@H](CC(C)C)NC(=O)[C@H](CCCCN)NC(=O)CNC(=O)[C@@H](NC(=O)[C@@H](N)CC(C)C)C(C)C)C(C)C)C(C)C)CSSC[C@@H](C(=O)O)NC1=O		RNA-seq, measured: Mrpl54	mouse, traumatic brain injury model, frontal cortex and hippocampus	dose not given	relative to: TBI alone	log2 fold change	-0.722
CC[C@H](C)[C@H](NC(=O)[C@H](Cc1ccccc1)NC(=O)[C@H](CCC(=O)O)NC(=O)[C@H](CCCNC(=N)N)NC(=O)[C@H](C)NC(=O)[C@H](C)NC(=O)[C@H](CCC(N)=O)NC(=O)[C@H](CCC(=O)O)NC(=O)[C@H](CCC(=O)O)NC(=O)[C@H](CC(C)C)NC(=O)[C@H](Cc1ccc(O)cc1)NC(=O)[C@H](CO)NC(=O)[C@H](CO)NC(=O)[C@@H](NC(=O)[C@H](CC(=O)O)NC(=O)[C@H](CO)NC(=O)[C@@H](NC(=O)[C@H](Cc1ccccc1)NC(=O)[C@@H](NC(=O)CNC(=O)[C@H](CCC(=O)O)NC(=O)[C@H](C)NC(=O)CCc1c[nH]cn1)[C@@H](C)O)[C@@H](C)O)C(C)C)C(=O)N[C@@H](C)C(=O)N[C@@H](Cc1c[nH]c2ccccc12)C(=O)N[C@@H](CC(C)C)C(=O)N[C@H](C(=O)N[C@@H](CCCNC(=N)N)C(=O)NCC(=O)N[C@@H](CCCNC(=N)N)C(=O)N[C@@H](CCCCNC(=O)COCCOCCNC(=O)COCCOCCNC(=O)CC[C@H](NC(=O)CCCCCCCCCCCCCCCCC(=O)O)C(=O)O)C(=O)NCC(=O)NCC(=O)N[C@@H](CO)C(=O)N[C@@H](CCCCNc1c(NCCCCCN(O)C(=O)CCC(=O)NCCCCCN(O)C(=O)CCC(=O)NCCCCCN(O)C(C)=O)c(=O)c1=O)C(=O)O)C(C)C [zirconium-89 labelled]		gamma counting	rat, colon content	intravenous, 3 nmol/kg, 24 h		tissue uptake	0.24 %ID/g
CO[C@H]1C[C@@H]2CC[C@@H](C)[C@@](O)(O2)C(=O)C(=O)N2CCCC[C@H]2C(=O)O[C@H]([C@H](C)C[C@@H]2CC[C@@H](OC(=O)NCCOCCOCCOCCOCCOCCOCCOCCOCCC(=O)N3CCc4cc(Cn5nc(-c6ccc7oc(N)nc7c6)c6c(N)ncnc65)ccc4C3)[C@H](OC)C2)C[C@@H](O)[C@H](C)/C=C(\C)[C@@H](O)[C@@H](OC)C(=O)[C@H](C)C[C@H](C)/C=C/C=C/C=C/1C			patients with advanced solid tumours	intravenous, 1.6 mg/3 mg weekly, grade ≥3		incidence of Rash TRAE	0%
C[C@]1(O)C[C@@](N)(c2ccc(-c3nc4n(c3-c3ccccc3)COc3ccncc3-4)cc2)C1			human, advanced or metastatic solid tumours	intermittent, dose escalation total, any grade		patients with Hyperphosphatemia TEAE	14.3%
C[C@H]1CN(c2n[nH]c3nc(N[C@H]4CC[C@H](NS(=O)(=O)CCC(F)(F)F)CC4)ncc23)CCO1	AP-2 complex subunit sigma (Homo sapiens, UniProt P53680)	Kinobeads competition, measured: AP2S1		20 µM, unit not given	relative to: vehicle	remaining binding	1.11
CC(=O)N1CCC(C(=O)N2CCN3C(=O)c4cc(-c5ccccc5)ccc4NC(=O)C3C2)CC1 (stereo not drawn)	Salmonella typhimurium		TA1537	15.8 µg/plate		revertants per plate	14
CCc1ccc(CC/C=C/c2ccc3c(c2)C(=O)CC3)cc1			Sprague-Dawley rat, male	oral, 120 mg/kg/day, 14 days		TC	1.86 mM
CCN(CC)CCCNC(=O)c1ccc(-c2nc(CN3CCc4ccccc43)c(C)o2)cc1	Vero-E6	CellTiter-Glo ATP		72 h, retest 8-point duplicates	relative to: DMSO 0%, hyamine -100%, more negative, more toxic	maximum response	-0.173%
CC(C)[C@@H]1CC[C@@H](C)C[C@@H]1O		acute oral toxicity OECD	Swiss albino mice, serum	oral, 300 mg/kg		lactate dehydrogenase	70.2 ± 5.82 mg/dL

Excerpt of the above:
Structure (SMILES)	tested on	test	test system	setting	how to read	measurement	value
COc1cc(Nc2ncc(F)c(Nc3ccc4c(n3)NC(=O)C(C)(C)O4)n2)cc(OC)c1OC	Low molecular weight phosphotyrosine protein phosphatase, isoform B (ACP1, Homo sapiens, UniProt P24666)			LMPTP-B		IC50	> 10 µM
Clc1nc[n]([Au][PH](c2ccccc2)(c2ccccc2)c2ccccc2)c1Cl			NCG mice	intraperitoneal, 3 mg/kg single dose, 24 h		body weight	23.2 g and 22.8 g
Cn1cc(-c2nc(N[C@@H]3CCCC[C@@H]3N)c(F)c3c2C(=O)NC3)cn1		measured: subdural haematoma	patients with relapsed or refractory AML	oral, 60 mg once daily		hemorrhagic adverse events	25%
